Results of several laboratories.
Every numbered part comes from another study and shows a few of its results, in no order.
Sequence of UniProt P42336 (whole entry, unmodified, looked up): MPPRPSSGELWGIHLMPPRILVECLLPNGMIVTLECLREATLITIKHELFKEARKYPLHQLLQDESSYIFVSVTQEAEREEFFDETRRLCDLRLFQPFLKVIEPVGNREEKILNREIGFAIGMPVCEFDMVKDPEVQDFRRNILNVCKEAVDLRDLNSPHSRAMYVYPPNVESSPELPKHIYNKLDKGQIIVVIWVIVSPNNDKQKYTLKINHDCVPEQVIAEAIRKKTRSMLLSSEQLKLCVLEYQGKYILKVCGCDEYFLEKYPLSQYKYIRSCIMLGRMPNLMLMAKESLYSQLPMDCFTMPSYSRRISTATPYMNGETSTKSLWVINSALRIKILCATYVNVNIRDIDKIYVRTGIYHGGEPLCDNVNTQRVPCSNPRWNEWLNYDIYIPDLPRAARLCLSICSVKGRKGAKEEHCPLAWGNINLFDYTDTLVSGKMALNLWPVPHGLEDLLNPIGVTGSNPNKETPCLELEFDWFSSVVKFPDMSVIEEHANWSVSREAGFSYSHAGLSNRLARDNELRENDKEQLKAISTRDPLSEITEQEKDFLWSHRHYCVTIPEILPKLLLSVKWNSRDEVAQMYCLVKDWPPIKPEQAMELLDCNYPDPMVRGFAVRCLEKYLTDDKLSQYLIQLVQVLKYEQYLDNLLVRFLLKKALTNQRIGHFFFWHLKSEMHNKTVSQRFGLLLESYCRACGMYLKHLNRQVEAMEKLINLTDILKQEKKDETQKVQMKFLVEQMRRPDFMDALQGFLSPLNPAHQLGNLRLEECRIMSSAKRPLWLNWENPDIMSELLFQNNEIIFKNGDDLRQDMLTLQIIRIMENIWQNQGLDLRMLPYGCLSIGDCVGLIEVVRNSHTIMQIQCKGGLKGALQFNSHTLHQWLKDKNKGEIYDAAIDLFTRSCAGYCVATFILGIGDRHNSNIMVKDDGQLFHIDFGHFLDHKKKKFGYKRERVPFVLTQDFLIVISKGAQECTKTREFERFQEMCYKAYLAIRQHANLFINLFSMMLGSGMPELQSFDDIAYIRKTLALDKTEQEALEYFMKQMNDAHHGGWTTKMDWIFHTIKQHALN
Sequence of UniProt Q9NWZ3 (whole entry, looked up): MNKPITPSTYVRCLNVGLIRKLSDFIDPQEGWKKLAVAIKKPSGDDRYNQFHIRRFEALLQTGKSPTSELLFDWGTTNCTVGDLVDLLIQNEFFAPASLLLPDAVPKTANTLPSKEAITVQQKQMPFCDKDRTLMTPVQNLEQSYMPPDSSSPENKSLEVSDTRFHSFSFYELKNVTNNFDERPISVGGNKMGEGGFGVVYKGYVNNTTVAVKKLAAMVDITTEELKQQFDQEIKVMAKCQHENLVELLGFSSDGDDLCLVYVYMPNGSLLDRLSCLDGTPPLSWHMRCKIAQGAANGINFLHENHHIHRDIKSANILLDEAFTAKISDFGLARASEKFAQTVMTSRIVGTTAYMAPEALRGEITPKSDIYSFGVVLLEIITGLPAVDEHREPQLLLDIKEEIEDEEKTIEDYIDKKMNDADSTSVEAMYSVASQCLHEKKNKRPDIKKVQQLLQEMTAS
Sequence of UniProt Q13131 (whole entry, looked up): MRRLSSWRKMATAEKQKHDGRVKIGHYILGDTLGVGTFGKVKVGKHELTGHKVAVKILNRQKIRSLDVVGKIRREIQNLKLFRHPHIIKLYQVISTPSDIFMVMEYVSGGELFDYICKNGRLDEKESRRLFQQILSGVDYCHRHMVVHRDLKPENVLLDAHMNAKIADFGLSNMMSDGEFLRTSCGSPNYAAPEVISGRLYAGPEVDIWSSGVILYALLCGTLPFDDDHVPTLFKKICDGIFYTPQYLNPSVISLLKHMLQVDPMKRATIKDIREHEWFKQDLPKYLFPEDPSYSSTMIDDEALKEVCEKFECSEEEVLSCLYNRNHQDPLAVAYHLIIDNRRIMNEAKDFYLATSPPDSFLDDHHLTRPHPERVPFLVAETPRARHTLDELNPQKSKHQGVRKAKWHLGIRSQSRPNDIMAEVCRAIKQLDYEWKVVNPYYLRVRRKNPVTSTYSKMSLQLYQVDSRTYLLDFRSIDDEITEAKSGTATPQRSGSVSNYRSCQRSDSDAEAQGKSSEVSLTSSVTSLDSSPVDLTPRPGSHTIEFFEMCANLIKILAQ
Sequence of UniProt Q13873 (whole entry, looked up): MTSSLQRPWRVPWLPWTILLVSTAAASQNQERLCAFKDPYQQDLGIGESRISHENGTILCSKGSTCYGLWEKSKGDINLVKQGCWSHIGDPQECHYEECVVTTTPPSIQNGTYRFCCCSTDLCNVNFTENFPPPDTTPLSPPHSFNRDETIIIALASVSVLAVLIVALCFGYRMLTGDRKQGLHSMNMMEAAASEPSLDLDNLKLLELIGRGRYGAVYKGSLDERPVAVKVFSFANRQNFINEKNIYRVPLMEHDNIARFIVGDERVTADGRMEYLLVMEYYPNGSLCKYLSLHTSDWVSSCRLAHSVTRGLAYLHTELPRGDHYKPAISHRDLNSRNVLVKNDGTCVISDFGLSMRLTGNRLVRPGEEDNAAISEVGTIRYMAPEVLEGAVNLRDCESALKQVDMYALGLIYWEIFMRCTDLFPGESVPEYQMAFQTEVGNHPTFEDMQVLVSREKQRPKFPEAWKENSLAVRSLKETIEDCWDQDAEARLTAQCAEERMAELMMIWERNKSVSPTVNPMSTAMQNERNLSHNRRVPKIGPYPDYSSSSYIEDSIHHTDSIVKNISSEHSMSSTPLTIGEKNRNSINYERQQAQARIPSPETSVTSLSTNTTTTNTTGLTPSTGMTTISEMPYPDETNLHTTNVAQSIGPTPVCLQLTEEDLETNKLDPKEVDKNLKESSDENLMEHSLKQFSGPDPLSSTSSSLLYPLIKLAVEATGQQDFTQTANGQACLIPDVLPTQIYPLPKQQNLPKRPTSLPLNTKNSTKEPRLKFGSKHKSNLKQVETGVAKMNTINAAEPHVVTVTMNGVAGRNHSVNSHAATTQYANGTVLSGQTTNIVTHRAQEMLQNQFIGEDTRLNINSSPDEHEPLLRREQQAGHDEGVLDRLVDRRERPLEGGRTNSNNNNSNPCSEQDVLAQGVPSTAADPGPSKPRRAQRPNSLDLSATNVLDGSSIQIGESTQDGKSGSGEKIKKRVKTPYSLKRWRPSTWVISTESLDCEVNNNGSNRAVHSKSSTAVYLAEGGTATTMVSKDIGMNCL
Sequence of UniProt Q15139 (whole entry, looked up): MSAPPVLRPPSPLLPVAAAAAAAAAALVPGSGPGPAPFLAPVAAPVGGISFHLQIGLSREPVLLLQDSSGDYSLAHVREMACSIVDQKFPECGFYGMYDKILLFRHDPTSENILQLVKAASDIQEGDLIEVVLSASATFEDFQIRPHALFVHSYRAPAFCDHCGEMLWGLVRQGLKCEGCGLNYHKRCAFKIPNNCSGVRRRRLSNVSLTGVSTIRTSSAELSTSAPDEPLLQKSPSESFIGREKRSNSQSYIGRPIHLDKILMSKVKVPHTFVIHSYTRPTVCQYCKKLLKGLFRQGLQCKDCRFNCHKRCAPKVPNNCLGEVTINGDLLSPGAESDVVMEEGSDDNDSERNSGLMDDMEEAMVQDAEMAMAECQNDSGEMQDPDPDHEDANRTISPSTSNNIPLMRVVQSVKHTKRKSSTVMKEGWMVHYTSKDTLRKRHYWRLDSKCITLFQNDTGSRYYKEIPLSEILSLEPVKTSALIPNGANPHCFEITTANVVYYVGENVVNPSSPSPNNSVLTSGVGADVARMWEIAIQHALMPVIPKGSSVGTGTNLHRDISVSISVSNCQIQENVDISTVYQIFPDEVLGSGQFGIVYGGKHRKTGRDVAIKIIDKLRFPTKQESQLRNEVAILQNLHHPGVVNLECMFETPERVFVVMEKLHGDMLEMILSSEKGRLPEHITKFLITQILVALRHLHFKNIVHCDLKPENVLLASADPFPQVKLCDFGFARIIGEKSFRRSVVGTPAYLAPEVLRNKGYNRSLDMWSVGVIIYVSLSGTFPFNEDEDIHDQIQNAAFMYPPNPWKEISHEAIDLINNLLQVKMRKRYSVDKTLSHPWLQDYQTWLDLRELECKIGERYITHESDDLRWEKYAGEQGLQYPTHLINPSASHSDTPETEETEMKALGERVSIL

Study 1 — organism: Sarcocystis neurona; effect on: parasite activity; concentration: concentration not given
| Compound | activity class |
| --- | --- |
| NS(=O)(=O)c1cc2c(cc1C(F)(F)F)NC(Cc1ccccc1)NS2(=O)=O (stereo not shown) | inactive |
| CC1=C(C/C=C(\C)CCC[C@H](C)CCC[C@H](C)CCCC(C)C)C(=O)c2ccccc2C1=O | inactive |
| Cl.NC(N)=NC(=O)c1nc(Cl)c(N)nc1N.O | inactive |
| CS(=O)(=O)O.O=C(O[C@H]1C[C@H]2CC3C[C@@H](C1)N2CC3=O)c1c[nH]c2ccccc12 | inactive |
| O=C(O)c1cc2ccccc2c(Cc2c(O)c(C(=O)O)cc3ccccc23)c1O.OCCOCCN1CCN(C(c2ccccc2)c2ccc(Cl)cc2)CC1 | inactive |
| CC(C)NCC(O)COc1cccc2ccccc12.Cl (stereo not shown) | inactive |
| COc1ccc2[n-]c([S+]([O-])Cc3ncc(C)c(OC)c3C)nc2c1.COc1ccc2[n-]c([S+]([O-])Cc3ncc(C)c(OC)c3C)nc2c1.[Mg+2] (stereo not shown) | inactive |
| CCC(C)(C)N=C(NC#N)Nc1cccnc1 | inactive |
| Nc1nc(Cl)nc2c1ncn2[C@@H]1O[C@H](CO)[C@@H](O)[C@H]1O | inactive |
| CCCc1nc(C)c2c(=O)[nH]c(-c3cc(S(=O)(=O)N4CCN(CC)CC4)ccc3OCC)nn12.O=C(O)CC(O)(CC(=O)O)C(=O)O | inactive |
| Cc1nccn1CC1CCc2c(c3ccccc3n2C)C1=O.Cl (stereo not shown) | inactive |
| CC(C)c1ccc2c(c1)c(SC(C)(C)C)c(CC(C)(C)C(=O)O)n2Cc1ccc(Cl)cc1 | inactive |

Study 2 — Compound: CC(C)CN(C)c1nc(N)c(C(=O)N=C(N)N)nc1Cl; effect on: β-arrestin recruitment; mode: agonist; technique: PRESTO-Tango; concentration: 10 µM; baseline: untreated
| target | fold over basal |
| --- | --- |
| Proteinase-activated receptor 3 (F2RL2, Homo sapiens, UniProt O00254) | 0.65 |
| Neuropeptide Y receptor type 5 (NPY5R, Homo sapiens, UniProt Q15761) | 0.68 |
| Lysophosphatidic acid receptor 4 (LPAR4, Homo sapiens, UniProt Q99677) | 0.82 |
| Alpha-2A adrenergic receptor (ADRA2A, Homo sapiens, UniProt P08913) | 0.31 |
| G-protein coupled receptor 157 (GPR157, Homo sapiens, UniProt Q5UAW9) | 0.71 |
| Gamma-aminobutyric acid type B receptor subunit 1 (GABBR1, Homo sapiens, UniProt Q9UBS5) | 0.71 fold |
| Alpha-1D adrenergic receptor (ADRA1D, Homo sapiens, UniProt P25100) | 0.87 |
| D(4) dopamine receptor (DRD4, Homo sapiens, UniProt P21917) | 1.2 |

Study 3 — effect on: enzyme activity; mode: inhibitor; concentration: 0.5 µM; baseline: control
Target: Ribosomal protein S6 kinase alpha-5 (RPS6KA5, Homo sapiens, UniProt O75582)
Sequence of UniProt O75582 (whole entry, looked up): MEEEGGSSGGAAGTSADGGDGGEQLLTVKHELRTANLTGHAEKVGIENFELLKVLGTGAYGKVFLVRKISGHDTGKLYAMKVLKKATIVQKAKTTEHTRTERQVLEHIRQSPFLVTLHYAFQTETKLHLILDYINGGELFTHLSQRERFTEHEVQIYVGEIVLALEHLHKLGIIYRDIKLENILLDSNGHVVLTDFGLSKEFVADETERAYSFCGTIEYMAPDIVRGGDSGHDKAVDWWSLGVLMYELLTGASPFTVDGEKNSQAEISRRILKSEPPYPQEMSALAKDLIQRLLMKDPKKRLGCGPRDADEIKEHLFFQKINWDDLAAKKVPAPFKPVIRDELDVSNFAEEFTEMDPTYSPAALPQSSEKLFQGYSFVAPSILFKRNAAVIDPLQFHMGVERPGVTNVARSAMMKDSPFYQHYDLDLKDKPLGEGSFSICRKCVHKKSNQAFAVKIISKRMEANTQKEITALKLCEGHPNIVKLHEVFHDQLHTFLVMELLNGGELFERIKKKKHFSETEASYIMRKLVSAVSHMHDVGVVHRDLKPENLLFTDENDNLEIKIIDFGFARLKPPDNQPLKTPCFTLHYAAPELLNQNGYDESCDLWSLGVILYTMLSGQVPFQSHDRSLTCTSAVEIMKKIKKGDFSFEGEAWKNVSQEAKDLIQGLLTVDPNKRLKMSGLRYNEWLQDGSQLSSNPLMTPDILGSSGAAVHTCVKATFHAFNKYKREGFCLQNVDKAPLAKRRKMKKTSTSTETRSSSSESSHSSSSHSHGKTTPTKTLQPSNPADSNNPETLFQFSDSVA
| Compound | remaining activity |
| --- | --- |
| COc1cc2ncnc(N3CCN(C(=O)Nc4ccc(Oc5ccccc5)cc4)CC3)c2cc1OC | 96.4% |
| CC(=O)O/N=C1/C(c2c(O)[nH]c3cc(Br)ccc23)=Nc2ccccc21 | 83.9% |
| O=C1NC(=O)/C(=C/c2ccc3nccnc3c2)S1 | 87.8% |
| Cc1ccc(NC(=O)c2ccc(CN3CCN(C)CC3)cc2)cc1Nc1nccc(-c2cccnc2)n1 | 98.3% |
| Cn1cnc2cc3c(Nc4cccc(Br)c4)ncnc3cc21 | 93.5% |
| C[S+]([O-])c1ccc(-c2nc(-c3ccncc3)c(-c3ccc(F)cc3)[nH]2)cc1 (stereo not shown) | 104% |
| COc1cc2ncnc(Nc3ccc(OCc4ccccc4)cc3)c2cc1OC | 103% |

Study 4 — concentration: 0.1 µM
SMILES: C[C@@H]1CN(c2cc(-c3n[nH]c4ccc(OC5(C)CC5)cc34)ncn2)C[C@H](C)O1
| target | assay | remaining binding [%] |
| --- | --- | --- |
| Serine/threonine-protein kinase 36 (STK36, Homo sapiens, UniProt Q9NRP7) | cell-free assay, competition with immobilised ligand | 86 |
| Protein kinase C epsilon type (PRKCE, Homo sapiens, UniProt Q02156) | cell-free assay, competition with immobilised ligand | 95 |
| Phosphatidylinositol 4,5-bisphosphate 3-kinase catalytic subunit alpha isoform (PIK3CA, Homo sapiens, UniProt P42336, M1043I) | cell-free assay, competition with immobilised ligand | 82 |
| Protein-tyrosine kinase 2-beta (PTK2B, Homo sapiens, UniProt Q14289) | cell-free assay, competition with immobilised ligand | 100 |
| Serine/threonine-protein kinase D1 (PRKD1, Homo sapiens, UniProt Q15139) | cell-free assay, competition with immobilised ligand | 84 |
| Non-receptor tyrosine-protein kinase TYK2, JH1 (TYK2, Homo sapiens, UniProt P29597) | cell-free assay, competition with immobilised ligand | 81 |
| Phosphatidylinositol 4-kinase beta (PI4KB, Homo sapiens, UniProt Q9UBF8) | cell-free assay, competition with immobilised ligand | 100 |
| Bone morphogenetic protein receptor type-2 (BMPR2, Homo sapiens, UniProt Q13873) | cell-free assay, competition with immobilised ligand | 75 |
| Mitogen-activated protein kinase kinase kinase 9 (MAP3K9, Homo sapiens, UniProt P80192) | cell-free assay, competition with immobilised ligand | 100 |
| Serine/threonine-protein kinase SBK1 (SBK1, Homo sapiens, UniProt Q52WX2) | cell-free assay, competition with immobilised ligand | 88 |
| Phosphatidylinositol 4,5-bisphosphate 3-kinase catalytic subunit alpha isoform (PIK3CA, Homo sapiens, UniProt P42336, Q546K) | cell-free assay, competition with immobilised ligand | 69 |
| Ribosomal protein S6 kinase alpha-5, N-terminal kinase domain (RPS6KA5, Homo sapiens, UniProt O75582) | cell-free assay, competition with immobilised ligand | 97 |
| Serine/threonine-protein kinase PLK1 (PLK1, Homo sapiens, UniProt P53350) | cell-free assay, competition with immobilised ligand | 68 |
| Tyrosine-protein kinase ABL1, phosphorylated (ABL1, Homo sapiens, UniProt P00519, F317L) | cell-free assay, competition with immobilised ligand | 82 |
| Serine/threonine-protein kinase MARK1 (MARK1, Homo sapiens, UniProt Q9P0L2) | cell-free assay, competition with immobilised ligand | 100 |
| Serine/threonine-protein kinase PAK 6 (PAK6, Homo sapiens, UniProt Q9NQU5) | cell-free assay, competition with immobilised ligand | 100 |
| 5'-AMP-activated protein kinase catalytic subunit alpha-1 (PRKAA1, Homo sapiens, UniProt Q13131) | cell-free assay, competition with immobilised ligand | 86 |
| Receptor-type tyrosine-protein kinase FLT3 (FLT3, Homo sapiens, UniProt P36888, D835Y) | cell-free assay, competition with immobilised ligand | 100 |
| Phosphatidylinositol 4-phosphate 3-kinase C2 domain-containing subunit beta (PIK3C2B, Homo sapiens, UniProt O00750) | cell-free assay, competition with immobilised ligand | 66 |
| Cyclin-dependent kinase 9 (CDK9, Homo sapiens, UniProt P50750) | cell-free assay, competition with immobilised ligand | 80 |
| Megakaryocyte-associated tyrosine-protein kinase (MATK, Homo sapiens, UniProt P42679) | cell-free assay, competition with immobilised ligand | 94 |
| Serine/threonine-protein kinase MRCK gamma (CDC42BPG, Homo sapiens, UniProt Q6DT37) | competition binding | 89 |
| Mitogen-activated protein kinase kinase kinase 20 (MAP3K20, Homo sapiens, UniProt Q9NYL2) | cell-free assay, competition with immobilised ligand | 92 |
| Interleukin-1 receptor-associated kinase 4 (IRAK4, Homo sapiens, UniProt Q9NWZ3) | cell-free assay, competition with immobilised ligand | 90 |
| Myosin light chain kinase (MYLK3, Homo sapiens, UniProt Q32MK0) | cell-free assay, competition with immobilised ligand | 87 |

For quick reference, copied from above (study 4):
| target | assay | remaining binding [%] |
| --- | --- | --- |
| Phosphatidylinositol 4,5-bisphosphate 3-kinase catalytic subunit alpha isoform (PIK3CA, Homo sapiens, UniProt P42336, M1043I) | cell-free assay, competition with immobilised ligand | 82 |
| Protein-tyrosine kinase 2-beta (PTK2B, Homo sapiens, UniProt Q14289) | cell-free assay, competition with immobilised ligand | 100 |
| Serine/threonine-protein kinase D1 (PRKD1, Homo sapiens, UniProt Q15139) | cell-free assay, competition with immobilised ligand | 84 |
| Non-receptor tyrosine-protein kinase TYK2, JH1 (TYK2, Homo sapiens, UniProt P29597) | cell-free assay, competition with immobilised ligand | 81 |
